# Results from different studies.
# A part holds a random share of what one study measured. Positions count from the first letter of the parent shown.

# Study 1 — technique: RNA Bind-n-Seq; molecule type: RNA; sample: in vitro; tested at: 365 nM; relative to: no-protein control; reading: higher = stronger binding
# Target: RNA binding protein fox-1 homolog 2, RRM domain, GST-SBP tag (RBFOX2, Homo sapiens, UniProt O43251-10, residues 100-194)
# Notes: natural RNA segment, single round, ends assumed
# Residues (chain): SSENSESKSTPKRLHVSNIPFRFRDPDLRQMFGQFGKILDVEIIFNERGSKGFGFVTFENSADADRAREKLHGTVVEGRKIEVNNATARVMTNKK
Strand,RBNS enrichment (R)
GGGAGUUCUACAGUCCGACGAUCAGCCCAUGGCCAAGAAGCCUAACAGUAGGCUCCAUACCAGGCCUCAGCCUGAUACAGCAUUACUGUUGUCACCAGUUGACUGGAAUUGUAACCUUUUACUUGGGAAUGUGUGGAAUUCUCGGGUGCCAA,0.288
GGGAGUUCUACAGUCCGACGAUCGUGUCCUAGAAGGGACCCUCCUGUGGUCUUUGUCUUGAUUUUUCUUAAUAAACGGUGCUAUCCCCGCAGGGGCCUCCUGAGUCUUUGAUGAGGGCUUCACUCAGUGGAGCUGGAAUUCUCGGGUGCCAA,0.382
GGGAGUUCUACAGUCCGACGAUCGGUGUCUCUGUCUGAGUUAGCUGCUGGGUGGAGCCUCACAUGUUCCUAUCUGUUACCAUAACAGAGUAGCAUUAAUAGUGUUAAGGAUUGGUGCUAGCCCAUGGGAUCGAUGGAAUUCUCGGGUGCCAA,0.346
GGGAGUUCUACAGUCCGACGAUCGUCAUAGUUGAAAUGAUGUUUAUUGUAGAUGGUAUUUGAACUUAUUCUUCUGGAAAUAGUUCAUCAAGUAUGUUUGUUGCUCAUUGUGAUACAUUAAAAACUGUAUCUGCUGGAAUUCUCGGGUGCCAA,0.833
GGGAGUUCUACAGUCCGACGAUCCCUCCUAGGGUCACAGUCGGUCAGCUUGGCUGCUCCAUUCUUUCAUAGGCAGGAUUCCUAAUUCCUGCCACUCCCCCUAAGAGCAGGACUUCCCUAUGCCAGCACAUGUGUGGAAUUCUCGGGUGCCAA,0.322
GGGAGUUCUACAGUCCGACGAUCCUCACCUCCACCCCCUCCUGUCACCGGCCUUGUGACAUUCACUCAGAGAAGACCACACCAAGGAGGCGGCCGCUGGCCCAGGAGAGAACACGGGGAGGUUUGUUUGUGUGUGGAAUUCUCGGGUGCCAA,0.465
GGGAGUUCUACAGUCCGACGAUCAGCCUCCAAAACUAACCAGGUCCACCUAACACCCCCUCCCUCCCCUAAGAAGAUGGAUGUCCUCAAAAGAGAAGGAACAAACCUCCUUGGGAAUCCACAUUUUUUGGGGGUGGAAUUCUCGGGUGCCAA,0.434
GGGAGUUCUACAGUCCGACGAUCACAUAUCCUGGAUCACAAAGCAAAGAAGAUGAACAGGUCCAGACACUGAGGCAAAUGGUACCUCAUUGGGUUGGAGACCCUCACCGGUUACUAUUUAUUUUACCCCACACUGGAAUUCUCGGGUGCCAA,0.543
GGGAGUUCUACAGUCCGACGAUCUCACACUGUGGGCACCUCUUGCAUCGCCUGCCAUUGCUGUGGAGGGUGGCCAUGGGCCAAAGGAAAAAGCACUGUCCUAUCUCAAGGUCCACUGUGGAAAUGUCCACCUUUGGAAUUCUCGGGUGCCAA,1.37
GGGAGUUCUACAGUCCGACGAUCCUUAAGGACAGAUGCUGAGAUUGCUUUUUGUAAACUCGUUUAAGCGAGUGAGUGAGUUGAGUUACCUGAACUCUGUAGCACUGGUUGUUCAUAGUGAUGAAGGACAGCACUGGAAUUCUCGGGUGCCAA,0.88
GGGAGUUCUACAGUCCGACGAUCCCAAAGUACGGGUAAUUCAGCCUGCACAGUUUCCUUUCACUCAUAGUUUCACAAUUACGAGUGAAAAAUCAUGUAAUUAUCUGUAAAUAUGUAGCUAACAAAUUGACCUAUGGAAUUCUCGGGUGCCAA,3.62
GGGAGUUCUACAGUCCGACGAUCCAGAUCCCGAAUCUAGAUUCCCAGUUCUAAGGCCUUAUCACCUCCCCUGCCCAUAGGCCAACAACCAUAGUUCCUCACAUUAGUGAUUAGCAGACUCUUUGUGGACGAGUUGGAAUUCUCGGGUGCCAA,0.406

# Study 2 — technique: protein-binding microarray; molecule type: double-stranded DNA, one strand shown; sample: in vitro; tested at: 2540 nM top; notes: 60-bp whole probe; added: salmon DNA 0.4 mg/ml; relative to: random background probes; reading: higher = stronger binding; shared flanks, not repeated: GCCTAGCAC … GTCTTGATTCGCTTGACGCTGCTG
# Target: Interferon regulatory factor 3, full length, phosphomimetic (IRF3, Homo sapiens, UniProt Q14653, residues 1-427, S386D/S396D/S398D/S402D/T404D/S405D)
# Residues (chain): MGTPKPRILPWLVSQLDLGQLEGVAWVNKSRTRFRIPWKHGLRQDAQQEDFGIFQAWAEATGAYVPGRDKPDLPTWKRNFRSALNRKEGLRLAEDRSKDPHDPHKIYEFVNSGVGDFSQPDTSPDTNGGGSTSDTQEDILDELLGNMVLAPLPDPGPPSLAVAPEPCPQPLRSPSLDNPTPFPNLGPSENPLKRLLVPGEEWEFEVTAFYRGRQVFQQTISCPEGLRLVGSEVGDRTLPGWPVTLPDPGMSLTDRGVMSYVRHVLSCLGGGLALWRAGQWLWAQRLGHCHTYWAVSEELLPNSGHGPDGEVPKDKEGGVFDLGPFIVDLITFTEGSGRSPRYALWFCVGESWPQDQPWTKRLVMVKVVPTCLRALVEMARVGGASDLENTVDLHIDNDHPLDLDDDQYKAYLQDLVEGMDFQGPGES
Strand,fitted relative affinity
TTAGGTTGCCTTTTCCTTTAGTGCTAG,6.97 z-score
TTAGGTCTCGGTTTCGGTTAGTGCTAG,5.56 z-score
TCATGTGTGCATCTATCACTGTGCTAG,-0.0734 z-score
GACGGTTTCCTACTGCTGAAGTGCTAG,5.38 z-score
TCACCTTTCTCCATGGGACTGTGCTAG,5.32 z-score
GACGGTTTCGACTCTGGGGACGTGCTA,4 z-score
TCATCTCTACTTGTGTCACTGTGCTAG,1.19 z-score
GGCGGACTGGACTATCGGGACGTGCTA,-0.838 z-score
GACGGTATCCTTCTCCTAACGTGCTAG,6.8 z-score
GACGGCCTGCTTTTCCTGACGTGCTAG,-0.493 z-score
GACGGTATCGACCATCGGGACGTGCTA,0.283 z-score
TTGCTTCCCAATTCTCTTTTCGTGCTA,2.16 z-score
GACGATCGCAGTTTCGAGACGTGCTAG,1.83 z-score
GACGGTCTCGGTTTCGGTACGTGCTAG,5.63 z-score
AGGCAGGCATAAAGGAAAAAGTGCTAG,-0.878 z-score
TCAGGACTGGACTATCGGTTAGTGCTA,-0.238 z-score
GACAGACTGGACACTGGGGACGTGCTA,-0.533 z-score
GACGATATCAGTCTCGACACGTGCTAG,1.25 z-score
TTGTGTCTGGGATTTTGTCCGTGCTAG,-0.807 z-score
CTTGCTACACATCTCACTCTGTGCTAG,0.599 z-score
TCATCTCTGGGCTGTGGGACTGTGCTA,0.265 z-score

# Study 3 — technique: protein binding microarray; molecule type: double-stranded DNA, one strand shown; sample: in vitro; tested at: not given; relative to: not given; reading: higher = stronger binding
# Target: Histone acetyltransferase KAT6A, winged helix 1, GST fusion (KAT6A, Homo sapiens, UniProt Q92794, residues 1-85)
# Notes: 8-mer, flanks averaged, mean of 2 arrays, mostly near background
# Residues (chain): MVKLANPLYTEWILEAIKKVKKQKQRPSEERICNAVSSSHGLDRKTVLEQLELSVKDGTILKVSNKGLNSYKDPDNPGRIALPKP
Strand,E-score
TCACGGCA,0.355
AAGCAGGA,-0.115
CTGAGGCC,0.121
GGGGGTCA,-0.0174
TGGGCGAA,-0.101
AAAAGCTC,-0.0756
GAACCTTA,-0.0874
CATGCTTC,-0.0219
CTAGAAGC,0.0991
AACTAGTC,-0.134
AGAGAATG,-0.102
AACTGACC,0.000925
CTTCTGGC,-0.283
ATGCCCGG,0.281
TCAGTGAA,-0.194
GCTACTAA,0.0889
CCGCGGAA,0.37
TCTGATAA,-0.199
TCAGCGAA,0.107
CCATCCCA,-0.26
ATTCGCTA,-0.102
CCCCCAGC,0.0544
CGGAAGAA,0.102
GAGAACTC,-0.145
CAGTATAC,-0.149

# Study 4 — target: CCNB3, cyclin fold, Cln2 fusion (human); technique: yeast growth competition, sequencing; sample: yeast; notes: weak parent motif; relative to: not given; reading: higher = stronger binding
# Parent: CDKN1A docking peptide (human); SKACRRLFGPVDS
Substitution,normalised enrichment score
SKACRRLFGPDDS [V11D],0.722
SEACRRLFGPVDS [K2E],0.385
SKAHRRLFGPVDS [C4H],0.535
SKAARRLFGPVDS [C4A],0.427
SKACRRLFGVVDS [P10V],0.183
SKHCRRLFGPVDS [A3H],0.4
SDACRRLFGPVDS [K2D],0.525
SSACRRLFGPVDS [K2S],0.53
SKACRCLFGPVDS [R6C],0.169
SKACFRLFGPVDS [R5F],0.245
SKATRRLFGPVDS [C4T],0.481
SKACRRLFGPMDS [V11M],0.258
SKACRRLFGPVQS [D12Q],0.0767
SKACRRPFGPVDS [L7P],0.0613
SKAMRRLFGPVDS [C4M],0.206
SKACRRLDGPVDS [F8D],0.137
SKACRRIFGPVDS [L7I],0.188
SKACRRLIGPVDS [F8I],0.254

# Study 5 — technique: RNA Bind-n-Seq; molecule type: RNA; sample: in vitro; tested at: 100 nM; notes: RNA with constant flanks, ends assumed; relative to: input RNA pool; reading: higher = stronger binding
# Target: RING finger protein unkempt homolog, zinc fingers 1-6, SBP tag (UNK, Homo sapiens, UniProt Q9C0B0, residues 30-357)
# Chain of UniProt Q9C0B0 (30-357, looked up): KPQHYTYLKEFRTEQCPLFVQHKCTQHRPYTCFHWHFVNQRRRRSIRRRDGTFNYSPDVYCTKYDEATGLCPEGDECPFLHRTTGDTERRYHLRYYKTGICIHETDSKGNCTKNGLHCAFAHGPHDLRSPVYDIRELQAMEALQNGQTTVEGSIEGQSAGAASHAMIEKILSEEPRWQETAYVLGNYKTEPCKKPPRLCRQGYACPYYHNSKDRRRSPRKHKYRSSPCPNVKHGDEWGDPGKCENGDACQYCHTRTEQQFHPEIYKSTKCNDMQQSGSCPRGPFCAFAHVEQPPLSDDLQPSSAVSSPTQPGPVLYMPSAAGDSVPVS
Strand,bound/input enrichment
GGGAGUUCUACAGUCCGACGAUCAAUCAGCCGAAUUACAUAAUACUAAAGUUGCAGUUGAAAGAAUAUCCAAGUAUGUGUUGGCCGUUACUAAAAGAAUUACCGCUGUUAUUGCCUUGUAUUUACCGCCCUUGUUUCAGGUUUCAACAGAGGAUUGAGCAUCA,0.241 ratio
GGGAGUUCUACAGUCCGACGAUCAUUCAAACCUGUGGUACCAUGGCCUCAUGUUGAAGGAGCCGAAGUGGACUCCGAGUCUAUCCGAAGAAUAAACAAGGCCAAAAAUGAACAAGAGCACCAUGCUGGAGGAGAUUCCCAGAACAACAGAGGAUUGAGCAUCA,0.143 ratio
GGGAGUUCUACAGUCCGACGAUCUAUCUUCCGGAUGAAGCUCUUACACCAAGUGUCACGAGUCUGGAGAACAGAUGGGUUGAGCCGUUGUUCUUAUAAAUCCGUAUCUGUGGAACACAAUCCUUUAUAUAUCAACAUCACAGUCAACAGAGGAUUGAGCAUCA,0.299 ratio
GGGAGUUCUACAGUCCGACGAUCCAGUCAUGGAGAAAAACAUAUUAAAAUAAUUUCAUGGCAUUGAUGUUAAUUCCCGUCUAUCCGUUUUAUAAAAGUCCGGAUUCUUAUUCCGGAACAACAGGAAAUGACUGUUAAGGAGAACAACAGAGGAUUGAGCAUCA,0.319 ratio

# Study 6 — technique: universal PBM; molecule type: double-stranded DNA, one strand shown; sample: in vitro; tested at: 600 nM; reading: higher = stronger binding
# Target: Sal-like protein 4, full length isoform A (SALL4, Homo sapiens, UniProt Q9UJQ4, residues 1-1053)
# Chain of UniProt Q9UJQ4 (whole entry, looked up): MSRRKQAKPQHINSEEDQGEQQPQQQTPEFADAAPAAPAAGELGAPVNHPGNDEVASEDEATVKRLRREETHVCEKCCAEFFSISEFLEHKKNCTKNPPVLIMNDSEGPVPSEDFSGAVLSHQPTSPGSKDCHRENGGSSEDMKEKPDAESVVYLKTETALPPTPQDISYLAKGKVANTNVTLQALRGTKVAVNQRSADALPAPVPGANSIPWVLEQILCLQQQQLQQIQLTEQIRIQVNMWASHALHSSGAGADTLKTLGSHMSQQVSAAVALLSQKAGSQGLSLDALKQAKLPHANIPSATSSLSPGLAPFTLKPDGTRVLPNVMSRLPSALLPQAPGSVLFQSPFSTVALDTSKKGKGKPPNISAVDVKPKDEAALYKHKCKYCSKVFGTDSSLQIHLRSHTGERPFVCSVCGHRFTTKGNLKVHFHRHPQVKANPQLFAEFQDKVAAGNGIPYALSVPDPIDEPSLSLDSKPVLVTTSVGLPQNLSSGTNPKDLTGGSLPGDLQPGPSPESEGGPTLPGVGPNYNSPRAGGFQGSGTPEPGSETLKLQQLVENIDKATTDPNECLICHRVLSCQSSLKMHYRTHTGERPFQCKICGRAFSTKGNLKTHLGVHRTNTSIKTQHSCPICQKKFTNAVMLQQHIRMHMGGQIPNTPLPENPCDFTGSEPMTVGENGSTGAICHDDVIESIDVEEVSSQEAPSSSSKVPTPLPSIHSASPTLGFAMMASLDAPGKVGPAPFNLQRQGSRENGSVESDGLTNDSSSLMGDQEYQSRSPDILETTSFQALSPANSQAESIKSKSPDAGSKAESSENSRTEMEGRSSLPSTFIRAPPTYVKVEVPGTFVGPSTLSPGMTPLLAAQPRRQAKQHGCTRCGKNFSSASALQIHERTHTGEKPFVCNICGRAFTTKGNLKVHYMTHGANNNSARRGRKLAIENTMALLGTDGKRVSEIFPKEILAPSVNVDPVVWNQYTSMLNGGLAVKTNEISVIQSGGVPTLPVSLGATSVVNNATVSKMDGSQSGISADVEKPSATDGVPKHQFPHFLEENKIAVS
# Notes: 8-mer, flanks averaged, mean of replicates
Strand,E-score
AATTTGGG,0.166
CGAGACGC,-0.139
CCGGTCAA,-0.215
CTCTCGCA,-0.112
AATCCATT,0.235
AACTTGAT,0.292
AATTTAGG,0.203
GGAACACC,-0.231
GGAAATAC,0.178
ACAACTCA,0.175
CTTCCTAC,-0.159
AACTGGCC,-0.25
GCGCAAGC,-0.268
GCGATCAA,0.00017
GACCGGAC,-0.357
TCACCACA,0.0227
AGGGGCTC,-0.345
CCTGAGAC,-0.211
AACTACAA,0.115
CGTTATGC,0.173
ATTTCTCG,0.218
AGCACCAG,-0.129
CGGACCAA,-0.096
